Experimental data from different studies.
Numbered parts are unrelated; each lists some results of a single study. ± marks the error that the study gave.

Set 1
Organism: SARS-CoV-2 Wuhan spike VSV pseudovirus
Effect on: pseudovirus entry
Concentration: concentration not given
Quantity: inhibition
CC(C)C1CN(C(=O)c2ccc3cccnc3c2O)CCCN1CC1CC1 (stereo not drawn): 51%
Cc1cc(NC(=O)C2CCN(c3ncnc4onc(C)c34)CC2)no1: 45%
O=C1CCCN1c1ccc(Cn2nc3c(S(=O)(=O)N4CCCC4)cccn3c2=O)cc1: 44%
N#Cc1ccc(C(=O)Nc2nc3c(s2)CN(Cc2ccccc2)CC3)cc1: 40%
ClC(Cl)(Cl)c1nc2ccccc2n2nncc12: 41%
Cn1nccc1C(=O)N1CCc2cc(-c3csc(C4CC4)n3)ccc21: 42%
CC1CCN(C(c2ccccc2)c2oc3ccccc3c2NC(=O)c2ccco2)CC1 (stereo not drawn): 43%
CC(NCc1ccccc1)C(=O)NCC(=O)N1CCCc2ccccc21 (stereo not drawn): 52%
O=C(NCc1ccccc1)C1CCCN(C(=O)C2Sc3ccccc3NC2=O)C1 (stereo not drawn): 45%
NC(=O)c1ccc(N2CCN(Cc3ccc(-c4ccccn4)cc3)CC2)nc1: 43%
CN(C)c1ccc(C2NC(=O)c3ccccc3N2)cc1[N+](=O)[O-] (stereo not drawn): 40%
Cc1nc(-c2cccc(Cl)c2)n(CC(=O)NCc2cccs2)c(=O)c1CCO: 41%
CSc1nnc(Sc2ncc([N+](=O)[O-])s2)s1: 48%
COc1ccc(-c2noc(CC3CCN(C(=O)C4(c5ccc(OC)cc5)CC4)CC3)n2)cc1: 41%
CC(Cc1ccsc1)Nc1ncnc2sccc12 (stereo not drawn): 41%
Nc1cccc(S(=O)(=O)c2cccc(N)c2)c1: 41%
CCN(CC)CCNC(=O)c1ccc(Nc2cc(-c3cccc(C)c3)ncn2)cc1: 44%
Cc1cc2c3c([nH]c2cc1S(=O)(=O)N1CCN(Cc2ccccc2)CC1)CCCC3=O: 42%
O=C(CN1CC(=O)Oc2ccccc21)Nc1cc(C(F)(F)F)ccc1N1CCCCC1: 42%
O=C(Nc1ccccc1)N1CCc2cc3ccccc3nc21: 40%
CCOC(=O)C1(CCCc2ccccc2)CCN(C(=O)c2cnsn2)CC1: 36%
COCC1CCCCN1c1nc2nonc2nc1NCc1cccs1 (stereo not drawn): 44%
Nc1nc(NCCNc2ccccc2)cc(N2CCOCC2)n1: 41%
O=C(Nc1nc2c(s1)CN(Cc1ccccc1)CC2)c1ccc(Cl)cc1: 40%

Single results of other studies
rep main protease: Replicase polyprotein 1ab, main protease (rep, Severe acute respiratory syndrome coronavirus 2, UniProt P0DTD1)
Matrix protein 2 V27A: Matrix protein 2 (Influenza A virus, UniProt P0DOF5, V27A)
rep nsp12 RdRp: Replicase polyprotein 1ab, nsp12 RdRp (rep, Severe acute respiratory syndrome coronavirus 2, UniProt P0DTD1)
COc1ccc(-c2cc(=O)c3c(OC)c(OC)c(OC)cc3o2)cc1 — inhibition (rep main protease; enzyme activity, inhibitor, FRET; 50 µM): -28.8%
N#Cc1ccc(N2CCC(c3ccc(C(=O)O)cc3)=N2)cc1Cl — EC50 (SARS-CoV-2; viral replication; Calu-3, B.1.617.2 Delta variant; 72 h): 61700 nM
CCOc1ccccc1OC(c1ccccc1)C1CNCCO1 (stereo not drawn) — activation (rep main protease; enzyme activity, activator, FRET peptide cleavage; SARS-CoV-2; 1 mM): > 15%
CCO — EC50 (SARS-CoV-2; virucidal activity, Viral ToxGlo; A549-hACE2, Delta B.1.617.2; 1 h, 37 °C): 9.45 % v/v
CN(C)CCn1c(C(=O)N2CCN(c3ccccc3Cl)CC2)c(C(c2ccc(O)cc2)c2ccc(O)cc2)c2ccccc21 — EC90 (SARS-CoV-2; viral replication, inhibitor; Vero E6, USA-WA1/2020; 24 h): ~1420 nM
Cl.NCC12C3CCC4C3C3C(CCC31)C42 — inhibition (Matrix protein 2 V27A; concentration not given, pH 5.5, cell-based): 0%
C[C@H](CCC(=O)[O-])[C@H]1CC[C@H]2[C@@H]3CC[C@@H]4C[C@H](O)CC[C@]4(C)[C@H]3CC[C@]12C.C[N+](C)(C)CCO — EC50 (SARS-CoV-2 Delta variant; virucidal activity; A549-hACE2, B.1.617.2; 72 h post infection, virus pretreated 1 h, 37 °C): 31.7 ± 4.72 µg/mL
CCC(CC)COC(=O)[C@H](C)N[P@](=O)(OC[C@H]1O[C@@](C#N)(c2ccc3c(N)ncnn23)[C@H](O)[C@@H]1O)Oc1ccccc1 — EC50 (SARS-CoV-2; viral replication; Vero C1008, B.1.351): 700 nM
CC(C)C(=O)OC[C@H]1O[C@@H](n2ccc(NO)nc2=O)[C@H](O)[C@@H]1O — selectivity index (SARS-CoV-2; relative to: CC50 over EC50): 7 to 49
C[C@@H]1O[C@@H](OC[C@H]2O[C@@H](Oc3cc(O)c4c(=O)cc(-c5ccc(O)cc5)oc4c3)[C@H](O[C@@H]3O[C@@H](C)[C@H](O)[C@@H](O)[C@H]3O)[C@@H](O)[C@@H]2O)[C@H](O)[C@H](O)[C@H]1O — BLI response (rep nsp12 RdRp; binding, biolayer interferometry; 50 µM): 0.04 nm
N[C@@H](CC(=O)N1CCn2c(nnc2C(F)(F)F)C1)Cc1cc(F)c(F)cc1F — IC50 (SARS-CoV-2; viral replication; Vero E6, B.1.617.2 (Delta); 48 h): 1840 nM
O=c1[nH]cnc2c([C@@H]3N[C@H](CO)[C@@H](O)[C@H]3O)c[nH]c12 — EC50 (SARS-CoV-2; viral RNA copies; Vero C1008, Omicron BA.1; 48 h): 690 ± 40 nM
CC[C@@]1(O)C[C@H](O[C@H]2C[C@H](N(C)C)[C@H](O[C@H]3C[C@H](O)[C@H](O[C@H]4CCC(=O)[C@H](C)O4)[C@H](C)O3)[C@H](C)O2)c2c(cc3c(c2O)C(=O)c2c(O)cccc2C3=O)[C@H]1C(=O)OC — IC50 (SARS-CoV-2 variants; viral replication; Calu-3; range over variants): ~100 nM
CCC1CC(c2ccc(C(=O)O)cc2)=NN1c1ccc(C#N)c(Cl)c1 (stereo not drawn) — EC50 (SARS-CoV-2; viral replication; Calu-3, B.1.617.2 Delta variant; 72 h): 24100 nM
CC(C)Nc1nc2cc(Cl)c(Cl)cc2n1[C@H]1O[C@@H](CO)[C@H](O)[C@@H]1O — EC50 (SARS-CoV-2; infectious virus yield; Vero C1008, Omicron BA.1; 48 h): 3000 ± 130 nM
CCC(CC)[C@H](NC(C)=O)[C@@H]1[C@H](O)[C@@H](C(=O)O)C[C@H]1N=C(N)N — IC50 (neuraminidase (Influenza B virus, UniProt A0A1S5RAG6, N294S)): 21.5 ± 3.1 nM
COc1c(O)cc2oc(-c3ccc(O)cc3)cc(=O)c2c1O — inhibition (rep main protease; protease activity, inhibitor, FRET; 50 µM): 16.8%
CCOC(=O)C1=C[C@@H](OC(CC)CC)[C@H](NC(C)=O)[C@@H](N)C1 — EC50 (influenza virus; compound-resistant): > 10000 nM
CN([C@@H](Cc1ccc(OS(=O)(=O)c2cccc3cnccc23)cc1)C(=O)N1CCN(c2ccccc2)CC1)S(=O)(=O)c1cccc2cnccc12 — BLI response (rep nsp12 RdRp; binding, biolayer interferometry; concentration not given): -0.02 nm
COc1ccc(-c2cc(=O)c3c(O)cc(O)c(-c4cc(-c5cc(=O)c6c(O)cc(OC)cc6o5)ccc4OC)c3o2)cc1 — Ki (rep main protease; enzyme activity, inhibitor): 2960 nM
CC(C)[C@H](NC(=O)[C@H](CCCNC(=N)N)NC(=O)N[C@@H](Cc1ccccc1)C(=O)O)C(=O)N[C@H](C=O)CCCNC(=N)N — EC50 (SARS-CoV-2; viral replication; Vero C1008, B.1.351): 26100 nM
CC#CCn1c(N2CCC[C@@H](N)C2)nc2c1c(=O)n(Cc1nc(C)c3ccccc3n1)c(=O)n2C — IC50 (SARS-CoV-2; viral replication; Vero E6, B.1.1.7 (Alpha); 48 h): 1950 nM
NC12CC3CC(CC(C3)O1)C2 — inhibition (Matrix protein 2 V27A; concentration not given, pH 5.5, cell-based): 0%
O=c1nc(NO)ccn1[C@@H]1O[C@H](CO)[C@@H](F)[C@H]1O — antiviral activity (SARS-CoV-2; Vero, variants other than Omicron; concentration not given, highest concentration tested): inactive

Excerpt of the above (single results of other studies):
CC#CCn1c(N2CCC[C@@H](N)C2)nc2c1c(=O)n(Cc1nc(C)c3ccccc3n1)c(=O)n2C — IC50 (SARS-CoV-2; viral replication; Vero E6, B.1.1.7 (Alpha); 48 h): 1950 nM
CC(C)Nc1nc2cc(Cl)c(Cl)cc2n1[C@H]1O[C@@H](CO)[C@H](O)[C@@H]1O — EC50 (SARS-CoV-2; infectious virus yield; Vero C1008, Omicron BA.1; 48 h): 3000 ± 130 nM
NC12CC3CC(CC(C3)O1)C2 — inhibition (Matrix protein 2 V27A; concentration not given, pH 5.5, cell-based): 0%
